Experimental data of several laboratories.
Each numbered part is a random draw from the data of one study; scales do not carry over between parts.
UniProt P80192, sequence (whole entry, looked up): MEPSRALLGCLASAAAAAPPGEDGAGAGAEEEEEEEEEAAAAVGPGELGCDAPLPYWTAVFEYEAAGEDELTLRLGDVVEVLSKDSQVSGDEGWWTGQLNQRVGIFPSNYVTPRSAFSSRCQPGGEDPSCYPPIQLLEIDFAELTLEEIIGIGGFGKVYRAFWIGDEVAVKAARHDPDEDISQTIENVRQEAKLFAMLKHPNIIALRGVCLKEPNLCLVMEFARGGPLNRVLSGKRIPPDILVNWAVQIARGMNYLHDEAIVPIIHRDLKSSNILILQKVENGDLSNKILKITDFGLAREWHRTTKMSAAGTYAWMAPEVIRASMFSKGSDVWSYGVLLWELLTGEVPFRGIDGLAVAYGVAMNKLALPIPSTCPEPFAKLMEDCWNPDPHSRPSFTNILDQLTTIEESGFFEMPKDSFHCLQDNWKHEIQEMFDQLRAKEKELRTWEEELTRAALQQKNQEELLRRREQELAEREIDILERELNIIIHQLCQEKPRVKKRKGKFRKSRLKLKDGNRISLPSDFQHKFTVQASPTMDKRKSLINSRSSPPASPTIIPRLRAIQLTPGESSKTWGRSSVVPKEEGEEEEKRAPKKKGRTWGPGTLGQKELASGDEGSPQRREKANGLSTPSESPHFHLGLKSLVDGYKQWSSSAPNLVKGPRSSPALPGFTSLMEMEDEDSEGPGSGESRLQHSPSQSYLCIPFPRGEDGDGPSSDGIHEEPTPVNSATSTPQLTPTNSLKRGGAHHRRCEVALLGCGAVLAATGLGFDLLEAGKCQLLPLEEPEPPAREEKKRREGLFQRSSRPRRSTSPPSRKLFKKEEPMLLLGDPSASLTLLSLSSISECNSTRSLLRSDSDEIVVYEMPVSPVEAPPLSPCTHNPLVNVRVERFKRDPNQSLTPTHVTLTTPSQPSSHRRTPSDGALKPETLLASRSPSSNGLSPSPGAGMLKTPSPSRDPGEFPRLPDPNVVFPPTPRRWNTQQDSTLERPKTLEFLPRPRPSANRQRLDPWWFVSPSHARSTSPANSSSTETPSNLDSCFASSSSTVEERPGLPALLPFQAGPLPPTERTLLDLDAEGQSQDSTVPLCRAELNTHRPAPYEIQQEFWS
UniProt P04629, sequence (whole entry, looked up): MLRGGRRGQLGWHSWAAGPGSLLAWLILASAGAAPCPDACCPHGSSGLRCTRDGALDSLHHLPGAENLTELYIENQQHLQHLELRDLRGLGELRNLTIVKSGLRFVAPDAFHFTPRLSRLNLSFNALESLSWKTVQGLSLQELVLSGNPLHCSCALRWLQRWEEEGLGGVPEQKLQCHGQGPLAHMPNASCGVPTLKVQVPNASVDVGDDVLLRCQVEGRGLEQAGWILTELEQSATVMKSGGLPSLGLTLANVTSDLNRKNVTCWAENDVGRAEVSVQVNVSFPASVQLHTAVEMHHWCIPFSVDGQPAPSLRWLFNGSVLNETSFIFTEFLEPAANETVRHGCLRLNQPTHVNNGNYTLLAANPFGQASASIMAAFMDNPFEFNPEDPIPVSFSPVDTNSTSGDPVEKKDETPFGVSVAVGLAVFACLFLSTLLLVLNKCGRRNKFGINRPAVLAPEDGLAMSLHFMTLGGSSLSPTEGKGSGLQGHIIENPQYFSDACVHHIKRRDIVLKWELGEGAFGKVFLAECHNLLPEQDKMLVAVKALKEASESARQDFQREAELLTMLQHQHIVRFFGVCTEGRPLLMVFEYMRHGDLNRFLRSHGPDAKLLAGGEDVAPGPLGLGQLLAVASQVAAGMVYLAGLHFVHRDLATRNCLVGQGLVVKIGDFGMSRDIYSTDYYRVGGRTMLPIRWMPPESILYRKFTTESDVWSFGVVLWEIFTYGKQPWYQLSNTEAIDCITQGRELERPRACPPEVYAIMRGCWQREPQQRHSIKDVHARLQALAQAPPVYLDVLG
UniProt P22455, sequence (whole entry, looked up): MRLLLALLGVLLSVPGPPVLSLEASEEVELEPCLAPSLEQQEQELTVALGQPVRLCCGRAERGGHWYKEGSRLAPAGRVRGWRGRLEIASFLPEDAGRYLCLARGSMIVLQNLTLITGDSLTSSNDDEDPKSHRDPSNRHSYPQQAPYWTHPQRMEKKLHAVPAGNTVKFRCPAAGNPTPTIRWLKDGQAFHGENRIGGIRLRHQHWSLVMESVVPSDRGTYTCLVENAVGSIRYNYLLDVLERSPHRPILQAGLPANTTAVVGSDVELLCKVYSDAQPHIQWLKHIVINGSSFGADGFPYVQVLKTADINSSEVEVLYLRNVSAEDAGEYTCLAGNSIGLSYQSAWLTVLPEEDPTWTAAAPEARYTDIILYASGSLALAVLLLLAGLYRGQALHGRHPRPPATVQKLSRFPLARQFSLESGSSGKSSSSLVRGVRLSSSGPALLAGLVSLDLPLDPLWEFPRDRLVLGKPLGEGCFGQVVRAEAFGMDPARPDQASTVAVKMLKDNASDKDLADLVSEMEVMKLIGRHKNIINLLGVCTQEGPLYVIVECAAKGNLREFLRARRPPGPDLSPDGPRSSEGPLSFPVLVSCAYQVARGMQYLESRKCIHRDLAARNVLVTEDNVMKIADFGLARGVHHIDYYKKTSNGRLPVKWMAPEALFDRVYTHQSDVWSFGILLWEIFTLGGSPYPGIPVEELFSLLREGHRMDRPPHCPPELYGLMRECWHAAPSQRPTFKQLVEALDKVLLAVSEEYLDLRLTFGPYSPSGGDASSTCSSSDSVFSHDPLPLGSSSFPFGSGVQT
UniProt Q13188, sequence (whole entry, looked up): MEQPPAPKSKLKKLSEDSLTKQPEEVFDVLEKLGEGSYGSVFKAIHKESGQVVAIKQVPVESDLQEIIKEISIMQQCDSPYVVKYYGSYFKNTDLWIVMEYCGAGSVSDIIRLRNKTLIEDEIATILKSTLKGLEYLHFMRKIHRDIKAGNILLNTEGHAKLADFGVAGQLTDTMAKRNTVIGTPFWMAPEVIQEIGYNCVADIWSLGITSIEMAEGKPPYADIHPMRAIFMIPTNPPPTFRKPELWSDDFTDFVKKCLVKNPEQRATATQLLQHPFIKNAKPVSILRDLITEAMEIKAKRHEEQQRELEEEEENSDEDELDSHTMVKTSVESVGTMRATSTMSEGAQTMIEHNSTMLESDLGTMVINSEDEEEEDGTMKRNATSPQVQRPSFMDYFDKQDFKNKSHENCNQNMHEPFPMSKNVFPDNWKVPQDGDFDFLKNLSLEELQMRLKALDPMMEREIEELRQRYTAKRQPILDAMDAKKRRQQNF
UniProt P35590, sequence (whole entry, looked up): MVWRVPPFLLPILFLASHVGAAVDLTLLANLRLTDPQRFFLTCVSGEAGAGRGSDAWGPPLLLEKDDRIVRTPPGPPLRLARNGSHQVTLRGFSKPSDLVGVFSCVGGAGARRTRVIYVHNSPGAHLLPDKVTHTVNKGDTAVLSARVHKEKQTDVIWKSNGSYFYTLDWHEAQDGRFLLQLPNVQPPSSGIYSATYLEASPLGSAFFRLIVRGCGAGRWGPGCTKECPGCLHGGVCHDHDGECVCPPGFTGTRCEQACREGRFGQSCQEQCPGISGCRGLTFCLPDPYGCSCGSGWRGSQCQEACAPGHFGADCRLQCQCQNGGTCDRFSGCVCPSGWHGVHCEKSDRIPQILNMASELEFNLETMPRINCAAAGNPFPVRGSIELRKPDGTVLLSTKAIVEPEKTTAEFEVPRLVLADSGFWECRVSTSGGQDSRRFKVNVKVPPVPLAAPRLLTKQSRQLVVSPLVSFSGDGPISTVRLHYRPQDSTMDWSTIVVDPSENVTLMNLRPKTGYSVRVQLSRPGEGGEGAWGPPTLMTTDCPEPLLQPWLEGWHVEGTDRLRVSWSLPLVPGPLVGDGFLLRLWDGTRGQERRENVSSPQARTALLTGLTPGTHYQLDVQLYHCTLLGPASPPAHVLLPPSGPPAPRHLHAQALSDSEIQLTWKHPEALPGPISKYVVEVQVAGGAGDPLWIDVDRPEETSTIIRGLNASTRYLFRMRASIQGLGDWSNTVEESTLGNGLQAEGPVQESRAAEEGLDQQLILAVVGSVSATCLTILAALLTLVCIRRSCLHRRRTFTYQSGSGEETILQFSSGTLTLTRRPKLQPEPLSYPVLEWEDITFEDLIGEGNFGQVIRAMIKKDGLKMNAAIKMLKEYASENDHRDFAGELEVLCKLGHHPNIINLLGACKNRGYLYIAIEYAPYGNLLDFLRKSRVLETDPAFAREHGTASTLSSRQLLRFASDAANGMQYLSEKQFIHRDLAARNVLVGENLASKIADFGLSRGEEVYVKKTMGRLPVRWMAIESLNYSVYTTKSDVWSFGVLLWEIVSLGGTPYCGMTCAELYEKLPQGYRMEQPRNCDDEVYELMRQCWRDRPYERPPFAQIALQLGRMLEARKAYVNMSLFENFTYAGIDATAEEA

Series 1 — method: competition with immobilised ligand; endpoint: remaining binding
Structure (SMILES): O=C(NCCCC1CCCCC1)c1ccc(CNC(=O)c2cnn(-c3ccccc3)c2C(F)(F)F)cc1
GSK3B (Homo sapiens, UniProt P49841); cell-free assay; 0.1 µM: 100%
MAP2K6 (Homo sapiens, UniProt P52564); cell-free assay; 0.1 µM: 79%
TIE1 (Homo sapiens, UniProt P35590); cell-free assay; 0.1 µM: 100%
CDK5 (Homo sapiens, UniProt Q00535); cell-free assay; 0.1 µM: 88%
STK38L (Homo sapiens, UniProt Q9Y2H1); binding; 1 µM: 20%
MAPK7 (Homo sapiens, UniProt Q13164); cell-free assay; 0.1 µM: 100%
MST1R (Homo sapiens, UniProt Q04912); cell-free assay; 0.1 µM: 100%
NTRK2 (Homo sapiens, UniProt Q16620); cell-free assay; 0.1 µM: 100%
BRAF (Homo sapiens, UniProt P15056); cell-free assay; 0.1 µM: 100%
PIP5K1C (Homo sapiens, UniProt O60331); cell-free assay; 0.1 µM: 90%
PIP5K1A (Homo sapiens, UniProt Q99755); cell-free assay; 0.1 µM: 100%
MAPK8 (Homo sapiens, UniProt P45983); cell-free assay; 0.1 µM: 99%
FLT3 (Homo sapiens, UniProt P36888, ITD); cell-free assay; 0.1 µM: 100%
STK3 (Homo sapiens, UniProt Q13188); cell-free assay; 0.1 µM: 100%
EPHA6 (Homo sapiens, UniProt Q9UF33); cell-free assay; 0.1 µM: 88%
EPHA5 (Homo sapiens, UniProt P54756); cell-free assay; 0.1 µM: 92%
ALK (Homo sapiens, UniProt Q9UM73); cell-free assay; 0.1 µM: 100%
FGFR4 (Homo sapiens, UniProt P22455); cell-free assay; 0.1 µM: 100%
HCK (Homo sapiens, UniProt P08631); cell-free assay; 0.1 µM: 100%

Series 2 — concentration: 1 µM; endpoint: remaining binding
Structure (SMILES): COc1ccc2[nH]c3c4[nH]c5ccc(OC)cc5c4c4c(c3c2c1)C(=O)NC4=O
MAP3K9 (Homo sapiens, UniProt P80192); competitive binding panel, refers to: MLK1; baseline: vehicle: 2.2%
CDK19 (Homo sapiens, UniProt Q9BWU1); competitive binding panel, refers to: CDK11; baseline: vehicle: 100%
AXL (Homo sapiens, UniProt P30530); competitive binding panel; baseline: vehicle: 30%
PRKCD (Homo sapiens, UniProt Q05655); competitive binding panel; baseline: vehicle: 93%
EIF2AK1 (Homo sapiens, UniProt Q9BQI3); competitive binding panel; baseline: vehicle: 86%
ABL1 (Homo sapiens, UniProt P00519, Q252H); competitive binding panel; baseline: vehicle: 28%
NTRK1 (Homo sapiens, UniProt P04629); competitive binding; TRKA: 40%
PIK3CA (Homo sapiens, UniProt P42336, Q546K); competitive binding panel; baseline: vehicle: 91%
PRKAA1 (Homo sapiens, UniProt Q13131); competitive binding; AMPK-alpha1: 44%
TGFBR2 (Homo sapiens, UniProt P37173); competitive binding panel; baseline: vehicle: 100%
RPS6KA5 (Homo sapiens, UniProt O75582); competitive binding scan; N-terminal kinase domain 1: 53%
WNK1 (Homo sapiens, UniProt Q9H4A3); competitive binding panel; baseline: vehicle: 91%
RPS6KA4 (Homo sapiens, UniProt O75676); competitive binding scan; C-terminal kinase domain 2: 25%
KIT (Homo sapiens, UniProt P10721, T670I/V559D); competitive binding panel; baseline: vehicle: 49%

Series 3 — action: inhibitor; endpoint: inhibition
SMILES: Cc1nc(Nc2ncc(C(=O)Nc3c(C)cccc3Cl)s2)cc(N2CCN(CCO)CC2)n1
PLK4 (Homo sapiens, UniProt O00444); 1 µM: < 50%
MARK1 (Homo sapiens, UniProt Q9P0L2); 10 µM: < 50%
CSNK1G1 (Homo sapiens, UniProt Q9HCP0); 10 µM: < 50%
CDC42BPA (Homo sapiens, UniProt Q5VT25); 10 µM: 90%
PKN1 (Homo sapiens, UniProt Q16512); 10 µM: < 50%
Non-receptor tyrosine-protein kinase TYK2, JH2 pseudokinase domain (TYK2, Homo sapiens, UniProt P29597); 10 µM: 70%
MAPK11 (Homo sapiens, UniProt Q15759); 1 µM: < 50%
CDC42BPB (Homo sapiens, UniProt Q9Y5S2); 10 µM: 90%
CDK2 (Homo sapiens, UniProt P24941); 10 µM: < 50%
MAP3K9 (Homo sapiens, UniProt P80192); 1 µM: < 50%
MYLK (Homo sapiens, UniProt Q15746); 10 µM: < 50%
CDK14 (Homo sapiens, UniProt O94921); 10 µM: < 50%
WEE2 (Homo sapiens, UniProt P0C1S8); 10 µM: 100%
Insulin receptor (INSR, Homo sapiens, UniProt P06213); 10 µM: < 50%
DAPK2 (Homo sapiens, UniProt Q9UIK4); 10 µM: < 50%
GAK (Homo sapiens, UniProt O14976); 10 µM: 99%

Series 4 — effect on: enzyme activity; action: inhibitor; concentration: 0.5 µM; baseline: control; endpoint: remaining activity
Target: RAF proto-oncogene serine/threonine-protein kinase (RAF1, Homo sapiens, UniProt P04049)
UniProt P04049, sequence (whole entry, looked up): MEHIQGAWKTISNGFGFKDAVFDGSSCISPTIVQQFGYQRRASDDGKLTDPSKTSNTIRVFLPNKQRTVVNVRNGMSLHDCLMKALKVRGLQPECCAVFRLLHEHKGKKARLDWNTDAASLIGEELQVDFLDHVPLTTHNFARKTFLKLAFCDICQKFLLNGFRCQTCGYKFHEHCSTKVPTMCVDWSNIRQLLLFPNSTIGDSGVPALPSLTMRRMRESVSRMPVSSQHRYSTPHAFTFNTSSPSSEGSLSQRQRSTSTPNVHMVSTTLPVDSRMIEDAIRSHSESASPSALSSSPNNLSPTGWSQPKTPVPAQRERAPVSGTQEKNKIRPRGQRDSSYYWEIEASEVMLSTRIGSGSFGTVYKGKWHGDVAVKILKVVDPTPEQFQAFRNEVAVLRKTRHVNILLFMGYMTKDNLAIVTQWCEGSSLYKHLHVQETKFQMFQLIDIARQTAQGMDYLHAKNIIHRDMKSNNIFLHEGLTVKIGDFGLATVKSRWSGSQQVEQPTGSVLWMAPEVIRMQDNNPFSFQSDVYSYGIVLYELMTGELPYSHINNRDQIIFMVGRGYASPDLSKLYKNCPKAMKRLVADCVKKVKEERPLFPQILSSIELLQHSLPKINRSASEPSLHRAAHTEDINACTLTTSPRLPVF
O=C1c2ccccc2-c2n[nH]c3cccc1c23: 88.2%
CN(C)C[C@H]1CCn2c(c(C3=C(c4cn(C)c5ccccc45)C(=O)NC3=O)c3ccccc32)C1: 96.6%
Nc1cccc(-c2cc3c(Oc4cccc(O)c4)ncnc3[nH]2)c1: 85.9%
O=C1C(Cl)=C(N2C(=O)CCC2=O)C(=O)c2ccccc21: 93%
O=C(NC(NC(=S)Nc1ccc(F)c([N+](=O)[O-])c1)C(Cl)(Cl)Cl)C(c1ccccc1)c1ccccc1 (stereo not shown): 95.3%
N#C/C(=C\c1ccc(O)c(O)c1)C(=O)NCc1ccccc1: 92.8%
Ic1cccc(CSc2nnc(-c3ccncc3)o2)c1: 92.8%
c1ccc(-c2cnc(Nc3ccc(OCCN4CCCC4)cc3)s2)cc1: 99%
O=c1cc(-c2cccc3c2Sc2ccccc2S3)oc(N2CCOCC2)c1: 94.7%
Cc1nc2cc3nc(-c4cccs4)cnc3cc2n1C: 104%
COc1cc2ncnc(Nc3ccc(O)c(Br)c3)c2cc1OC: 92.1%
CCN(CC)CCNC(=O)c1c(C)[nH]c(/C=C2\C(=O)Nc3ccc(Cl)cc32)c1C: 117%
Cc1cc2ncc(-c3ccccc3)nc2cc1C: 95.6%
CCN(CC)C(=O)c1ccc(Nc2nc(OCC3CCCCC3)c3[nH]cnc3n2)cc1: 86.3%
O=C(Nc1cccc(Nc2nccc(Nc3cccc(C(F)(F)F)c3)n2)c1)C1CC1: 98.7%
N#Cc1c(NC(=O)c2cccc3ccccc23)sc2c1CCCC2: 92.9%
c1ccc(-c2[nH]ncc2-c2ccnc3ccccc23)nc1: 89.5%
Cn1nc2c3c(cccc31)C(=O)c1ccccc1-2: 87%
CN([C@@H](Cc1ccc(OS(=O)(=O)c2cccc3cnccc23)cc1)C(=O)N1CCN(c2ccccc2)CC1)S(=O)(=O)c1cccc2cnccc12: 96.9%
CCOc1nc(NC(=O)Cc2cc(OC)ccc2OC)cc(N)c1C#N: 91.8%
COc1cc2ncnc(Nc3cccc(Cl)c3)c2cc1OC: 78.4%

For quick reference, copied from above (series 1):
NTRK2 (Homo sapiens, UniProt Q16620); cell-free assay; 0.1 µM: 100%
STK38L (Homo sapiens, UniProt Q9Y2H1); binding; 1 µM: 20%
PIP5K1C (Homo sapiens, UniProt O60331); cell-free assay; 0.1 µM: 90%
MAP2K6 (Homo sapiens, UniProt P52564); cell-free assay; 0.1 µM: 79%
